Published values pooled from the literature.
Numbered parts are unrelated; each lists some results of a single study.
Chain of UniProt Q13523 (whole entry, looked up): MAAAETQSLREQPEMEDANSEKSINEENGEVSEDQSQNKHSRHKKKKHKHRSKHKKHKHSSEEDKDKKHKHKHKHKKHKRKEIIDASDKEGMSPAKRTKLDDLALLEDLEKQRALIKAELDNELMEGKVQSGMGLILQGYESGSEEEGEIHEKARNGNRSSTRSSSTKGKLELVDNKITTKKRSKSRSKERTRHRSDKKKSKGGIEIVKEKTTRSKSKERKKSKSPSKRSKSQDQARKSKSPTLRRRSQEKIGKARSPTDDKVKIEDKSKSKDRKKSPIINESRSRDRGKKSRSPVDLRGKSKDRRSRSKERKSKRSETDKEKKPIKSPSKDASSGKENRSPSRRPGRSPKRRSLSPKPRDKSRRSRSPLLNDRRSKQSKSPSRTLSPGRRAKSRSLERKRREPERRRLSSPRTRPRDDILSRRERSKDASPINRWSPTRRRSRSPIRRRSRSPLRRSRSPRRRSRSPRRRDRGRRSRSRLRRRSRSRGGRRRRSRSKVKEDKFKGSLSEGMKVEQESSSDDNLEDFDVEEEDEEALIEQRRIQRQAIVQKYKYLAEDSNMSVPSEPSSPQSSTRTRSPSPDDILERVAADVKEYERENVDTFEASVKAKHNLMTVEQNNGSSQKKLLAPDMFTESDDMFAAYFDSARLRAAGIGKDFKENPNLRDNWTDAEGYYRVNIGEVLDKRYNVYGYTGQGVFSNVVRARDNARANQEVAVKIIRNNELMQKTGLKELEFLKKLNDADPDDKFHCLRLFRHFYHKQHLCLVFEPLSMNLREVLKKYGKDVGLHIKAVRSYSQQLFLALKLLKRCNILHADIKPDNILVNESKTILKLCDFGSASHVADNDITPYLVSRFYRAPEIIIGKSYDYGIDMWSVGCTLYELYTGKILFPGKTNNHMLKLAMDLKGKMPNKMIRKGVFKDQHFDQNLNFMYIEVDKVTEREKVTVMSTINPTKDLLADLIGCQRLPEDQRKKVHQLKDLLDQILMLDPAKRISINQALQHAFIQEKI
Chain of UniProt Q86Y07 (whole entry, looked up): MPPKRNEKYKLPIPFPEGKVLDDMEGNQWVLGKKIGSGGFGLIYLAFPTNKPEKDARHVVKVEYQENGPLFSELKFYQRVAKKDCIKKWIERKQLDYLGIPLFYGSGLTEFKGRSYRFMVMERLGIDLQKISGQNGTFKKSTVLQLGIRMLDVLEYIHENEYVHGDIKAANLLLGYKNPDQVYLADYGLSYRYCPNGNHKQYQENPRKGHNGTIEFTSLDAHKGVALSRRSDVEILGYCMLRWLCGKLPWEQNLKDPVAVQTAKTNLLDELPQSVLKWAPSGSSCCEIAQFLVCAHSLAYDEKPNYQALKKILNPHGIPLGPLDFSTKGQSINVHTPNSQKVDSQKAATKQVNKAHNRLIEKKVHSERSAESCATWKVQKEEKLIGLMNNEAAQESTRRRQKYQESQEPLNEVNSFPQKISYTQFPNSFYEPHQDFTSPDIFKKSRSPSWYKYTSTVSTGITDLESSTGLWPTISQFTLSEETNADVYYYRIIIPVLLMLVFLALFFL
Chain of UniProt Q9UPZ9 (whole entry, looked up): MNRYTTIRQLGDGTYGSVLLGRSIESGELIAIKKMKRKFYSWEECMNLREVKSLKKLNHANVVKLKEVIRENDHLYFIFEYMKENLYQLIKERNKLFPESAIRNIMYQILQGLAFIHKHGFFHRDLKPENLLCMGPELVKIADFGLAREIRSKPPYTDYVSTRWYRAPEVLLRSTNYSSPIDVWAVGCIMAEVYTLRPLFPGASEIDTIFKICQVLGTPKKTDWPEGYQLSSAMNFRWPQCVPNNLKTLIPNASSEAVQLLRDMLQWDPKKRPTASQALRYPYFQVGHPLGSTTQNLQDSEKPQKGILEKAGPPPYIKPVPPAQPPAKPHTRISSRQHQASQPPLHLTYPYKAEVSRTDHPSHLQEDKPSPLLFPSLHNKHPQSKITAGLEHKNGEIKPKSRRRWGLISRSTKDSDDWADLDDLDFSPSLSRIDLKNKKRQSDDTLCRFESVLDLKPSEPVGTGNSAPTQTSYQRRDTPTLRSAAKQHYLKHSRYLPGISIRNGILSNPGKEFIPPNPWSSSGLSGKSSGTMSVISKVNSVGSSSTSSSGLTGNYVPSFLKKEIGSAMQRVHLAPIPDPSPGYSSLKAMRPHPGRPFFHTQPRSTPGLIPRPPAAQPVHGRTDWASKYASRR
Chain of UniProt Q14012 (whole entry, looked up): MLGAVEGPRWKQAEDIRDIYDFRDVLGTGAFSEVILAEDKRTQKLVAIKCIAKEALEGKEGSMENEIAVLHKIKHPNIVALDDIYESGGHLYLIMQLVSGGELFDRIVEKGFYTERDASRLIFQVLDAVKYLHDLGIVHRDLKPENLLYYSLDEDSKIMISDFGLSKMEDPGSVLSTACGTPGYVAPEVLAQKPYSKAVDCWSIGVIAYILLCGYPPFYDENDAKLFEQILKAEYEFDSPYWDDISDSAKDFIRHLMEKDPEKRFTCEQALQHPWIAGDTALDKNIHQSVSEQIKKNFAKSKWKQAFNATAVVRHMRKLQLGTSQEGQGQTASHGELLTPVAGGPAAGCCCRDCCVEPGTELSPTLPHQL
Chain of UniProt Q9Y616 (whole entry, looked up): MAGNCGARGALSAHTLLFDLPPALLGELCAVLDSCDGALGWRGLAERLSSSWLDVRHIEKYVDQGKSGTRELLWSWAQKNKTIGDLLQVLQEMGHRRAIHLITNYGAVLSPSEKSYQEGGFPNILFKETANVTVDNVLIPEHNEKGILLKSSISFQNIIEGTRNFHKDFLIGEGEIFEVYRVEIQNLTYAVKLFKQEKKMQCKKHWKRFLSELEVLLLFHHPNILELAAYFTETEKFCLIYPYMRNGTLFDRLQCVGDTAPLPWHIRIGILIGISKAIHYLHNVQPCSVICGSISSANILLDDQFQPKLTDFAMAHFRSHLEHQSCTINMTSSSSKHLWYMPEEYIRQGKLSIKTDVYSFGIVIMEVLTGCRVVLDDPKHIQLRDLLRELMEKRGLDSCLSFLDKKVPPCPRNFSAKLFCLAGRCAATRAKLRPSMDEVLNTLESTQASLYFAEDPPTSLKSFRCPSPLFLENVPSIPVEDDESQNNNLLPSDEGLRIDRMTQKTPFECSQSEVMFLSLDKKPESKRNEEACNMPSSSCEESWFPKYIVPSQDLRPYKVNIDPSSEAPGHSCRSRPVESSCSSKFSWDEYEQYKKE
Chain of UniProt P78356 (whole entry, looked up): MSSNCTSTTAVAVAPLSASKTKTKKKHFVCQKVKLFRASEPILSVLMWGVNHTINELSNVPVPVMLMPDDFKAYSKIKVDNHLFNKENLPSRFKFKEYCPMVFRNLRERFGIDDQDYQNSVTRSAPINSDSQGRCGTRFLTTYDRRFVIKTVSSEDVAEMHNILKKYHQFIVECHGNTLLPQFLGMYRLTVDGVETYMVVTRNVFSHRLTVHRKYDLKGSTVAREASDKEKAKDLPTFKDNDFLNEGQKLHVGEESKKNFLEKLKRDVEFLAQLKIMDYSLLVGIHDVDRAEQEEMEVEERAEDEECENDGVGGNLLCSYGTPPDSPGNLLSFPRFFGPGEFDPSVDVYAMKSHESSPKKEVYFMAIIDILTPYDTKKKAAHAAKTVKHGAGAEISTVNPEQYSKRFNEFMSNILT
Chain of UniProt Q13554 (whole entry, looked up): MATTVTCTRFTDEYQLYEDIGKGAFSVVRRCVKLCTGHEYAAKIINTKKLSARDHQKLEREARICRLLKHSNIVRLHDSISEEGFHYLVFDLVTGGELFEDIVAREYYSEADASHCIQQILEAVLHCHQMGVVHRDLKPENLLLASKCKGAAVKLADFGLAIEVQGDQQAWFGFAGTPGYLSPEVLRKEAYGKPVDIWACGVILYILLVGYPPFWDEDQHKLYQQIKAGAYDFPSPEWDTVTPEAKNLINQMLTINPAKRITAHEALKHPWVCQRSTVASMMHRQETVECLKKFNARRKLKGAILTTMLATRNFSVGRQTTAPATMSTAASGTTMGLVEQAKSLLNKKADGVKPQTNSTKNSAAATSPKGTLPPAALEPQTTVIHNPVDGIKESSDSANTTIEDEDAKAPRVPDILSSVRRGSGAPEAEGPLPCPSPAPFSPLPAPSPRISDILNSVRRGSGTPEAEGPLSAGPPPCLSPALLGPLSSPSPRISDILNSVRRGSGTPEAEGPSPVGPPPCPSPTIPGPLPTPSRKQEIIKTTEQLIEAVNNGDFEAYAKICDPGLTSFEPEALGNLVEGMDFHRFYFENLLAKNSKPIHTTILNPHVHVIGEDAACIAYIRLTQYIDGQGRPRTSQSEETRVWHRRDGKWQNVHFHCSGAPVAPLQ
Chain of UniProt P51957 (whole entry, looked up): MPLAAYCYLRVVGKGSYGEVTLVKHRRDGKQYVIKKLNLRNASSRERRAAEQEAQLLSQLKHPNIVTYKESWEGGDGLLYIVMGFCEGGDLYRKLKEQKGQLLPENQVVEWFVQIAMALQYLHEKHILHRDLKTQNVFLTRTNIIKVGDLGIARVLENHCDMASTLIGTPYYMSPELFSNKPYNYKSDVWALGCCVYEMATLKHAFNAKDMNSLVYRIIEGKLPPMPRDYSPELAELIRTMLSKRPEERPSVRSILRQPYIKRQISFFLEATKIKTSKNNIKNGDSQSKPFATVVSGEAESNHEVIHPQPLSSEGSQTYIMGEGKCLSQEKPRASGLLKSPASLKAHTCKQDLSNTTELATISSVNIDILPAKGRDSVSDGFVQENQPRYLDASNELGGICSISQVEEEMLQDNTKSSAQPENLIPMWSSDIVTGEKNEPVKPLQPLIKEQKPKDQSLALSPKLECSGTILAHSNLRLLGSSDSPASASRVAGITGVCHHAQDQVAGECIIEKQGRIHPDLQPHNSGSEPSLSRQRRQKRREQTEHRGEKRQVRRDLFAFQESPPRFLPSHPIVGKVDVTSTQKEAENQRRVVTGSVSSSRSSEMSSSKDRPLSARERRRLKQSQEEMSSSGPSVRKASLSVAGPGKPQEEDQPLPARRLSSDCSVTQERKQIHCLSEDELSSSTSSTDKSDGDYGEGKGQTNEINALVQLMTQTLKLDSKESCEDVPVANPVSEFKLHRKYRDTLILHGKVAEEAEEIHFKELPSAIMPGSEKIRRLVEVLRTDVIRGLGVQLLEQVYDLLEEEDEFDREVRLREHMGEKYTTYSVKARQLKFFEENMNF

Sample 1 — technique: RNA Bind-n-Seq; form: RNA; matrix: in vitro; tested at: 20 nM; setting: 6-mer, flanks averaged, single round; together with: 150 mM KCl; reference: input library; reading: higher = stronger binding
Target: TAR DNA-binding protein 43, full length, His tag (TARDBP, Homo sapiens, UniProt Q13148, residues 1-414)
| Oligonucleotide | 6-mer enrichment (R) |
| --- | --- |
| ACUUGG | 0.901 |
| UUAUGA | 0.668 |
| CAUGCU | 0.64 |
| CAGGCA | 0.897 |
| GGUGUG | 3.42 |
| GACUCG | 0.873 |
| CGUACC | 0.634 |
| UUUGGC | 0.732 |

Sample 2 — technique: protein binding microarray; form: double-stranded DNA, one strand shown; matrix: in vitro; tested at: not given; reference: not given; reading: higher = stronger binding
Target: Histone acetyltransferase KAT6A, winged helix 2, GST fusion (KAT6A, Homo sapiens, UniProt Q92794, residues 85-181)
Setting: 8-mer, flanks averaged, mean of 2 arrays, mostly near background
Target sequence (chain): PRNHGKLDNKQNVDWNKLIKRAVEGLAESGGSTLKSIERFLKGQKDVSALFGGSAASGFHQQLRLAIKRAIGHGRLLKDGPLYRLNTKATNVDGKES
| Oligonucleotide | E-score |
| --- | --- |
| TAACAAAA | 0.105 |
| GGCACGCC | -0.0145 |
| CCTCAGAC | 0.0148 |
| ATTCGCTA | -0.186 |
| TAAGCAGA | 0.0494 |
| ATAATTGC | 0.00938 |
| GCTATTCA | -0.0761 |
| GGGTTCTA | -0.192 |

Sample 3 — Compound: CCC(=N\O)/C(C)=C/c1ccc(F)cc1; technique: competition with immobilised ligand; tested at: 1 µM
| target | effect on | remaining binding [%] |
| --- | --- | --- |
| VRK2 (Homo sapiens, UniProt Q86Y07) | cell-free assay | 74 |
| PIP4K2B (Homo sapiens, UniProt P78356) | cell-free assay | 91 |
| FLT3 (Homo sapiens, UniProt P36888, R834Q) | cell-free assay | 80 |
| CAMK1 (Homo sapiens, UniProt Q14012) | cell-free assay | 100 |
| IRAK3 (Homo sapiens, UniProt Q9Y616) | cell-free assay | 100 |
| NEK4 (Homo sapiens, UniProt P51957) | cell-free assay | 83 |
| FLT3 (Homo sapiens, UniProt P36888, K663Q) | cell-free assay | 100 |
| CAMK2B (Homo sapiens, UniProt Q13554) | cell-free assay | 97 |
| CILK1 (Homo sapiens, UniProt Q9UPZ9) | cell-free assay | 100 |
| Tyrosine-protein kinase ABL1, non-phosphorylated (ABL1, Homo sapiens, UniProt P00519, T315I) | cell-free assay | 75 |
| PRPF4B (Homo sapiens, UniProt Q13523) | cell-free assay | 100 |
| FLT3 (Homo sapiens, UniProt P36888, D835Y) | cell-free assay | 91 |
| CDK11A (Homo sapiens, UniProt Q9UQ88) | binding | 94 |

Other studies, line by line
| Compound | effect on | technique | matrix | tested at | setting | endpoint | value |
| --- | --- | --- | --- | --- | --- | --- | --- |
| COc1ccc(-c2[nH]c3ncccc3c2CN2CCOCC2)cc1 | AlphaScreen signal | AlphaScreen counter screen | His6 peptide without bromodomain | 50 µM | assay interference check | inhibition | 11.3% |

Excerpt of the above (sample 3):
| target | effect on | remaining binding [%] |
| --- | --- | --- |
| IRAK3 (Homo sapiens, UniProt Q9Y616) | cell-free assay | 100 |
| NEK4 (Homo sapiens, UniProt P51957) | cell-free assay | 83 |
| FLT3 (Homo sapiens, UniProt P36888, K663Q) | cell-free assay | 100 |
| CAMK2B (Homo sapiens, UniProt Q13554) | cell-free assay | 97 |
